# Experimental data collected from several papers.
# Cell line: MDA-MB-231
SMILES,test,system,setting,how to read,endpoint,result
C=CC(OC(C)=O)c1cc(OC)c(OC(C)=O)c(OC)c1 (stereo not drawn),Western blot,,"IC50, 24 h",relative to: untreated,Bcl-2 protein decrease,40 to 50%
Cc1nc2ccc(Cc3c[nH]c4ncc(C(F)(F)F)cc34)cc2o1,cell growth or viability,,"10 µM, 72 h",,inhibition,9%
C=CC(OC(C)=O)c1ccc(OC(C)=O)c(OC)c1 (stereo not drawn),Western blot,,"IC50, 24 h",relative to: untreated,Bcl-xL protein decrease,30 to 50%
CCCCCCCCCCCCCC(=O)N1CCC[C@H]1C(=O)N[C@@H](CO)C(=O)N[C@@H](CCC(N)=O)C(=O)N[C@@H](CO)C(=O)N[C@@H](CO)C(=O)N[C@@H](CO)C(=O)N[C@@H](CCC(=O)O)C(=O)N[C@@H](C)C(=O)O,annexin V/PI flow cytometry,,"200 µM, 48 h",,apoptotic cells,35%
Clc1ccc2ccc3[n+](c2c1)[Ir-3]12([c]4ccccc4-3)([c]3ccccc3-c3ccc4ccc(Cl)cc4[n+]31)[n+]1ccccc1-c1cccc[n+]12.F[P-](F)(F)(F)(F)F,"qPCR, measured: c-Myc",,3 µM,,mRNA level,inhibited
Cc1ccc(C(C)C)cc1.O=C(N=P(c1ccccc1)(c1ccccc1)c1ccccc1)c1ccccn1.[Cl-].[Cl][Ru+],Annexin V/PI flow cytometry,,"IC50, 24 h",,apoptotic cells,46%
COc1cccc(C(O)c2c[nH]c3ncc(C(F)(F)F)cc23)c1 (stereo not drawn),cell growth or viability,,"10 µM, 72 h",,inhibition,6%
COC(=O)C1CCCN1C(=O)C(Cc1ccccc1)N(C)C(=O)CC(O)C(CC(C)C)NC(=O)C(CC(C)C)N(C)C(=O)C(CC(C)C)NC(=O)C(O)C(C)C (stereo not drawn),MTT,,"40 and 13 µM, 48 h, added: TRAIL",,sensitivity to TRAIL,increased
CCC(C(=O)O)C1CCC(C)C(C(C)C(O)C(C)C(=O)C(CC)C2OC3(C=CC(=O)C4(CCC(C)(C5CCC(O)(CC)C(C)O5)O4)O3)C(C)CC2C)O1 (stereo not drawn),MTT,,added: benzhydroxamic acid 71.0 µM,,combination index,1.5
O=C(Cc1ccccc1)Nc1nc2ccccc2n1Cc1ccccc1,"inhibitor, western blot",,"concentration not given, hypoxia 1% oxygen",,HIF-1α accumulation,no inhibition
C=CC(OC(C)=O)c1ccccc1 (stereo not drawn),"cell growth or viability, MTT",,,,IC20,31 µM
CC(=O)N[C@@H](Cc1ccc(O)cc1)CN(CC(=O)N[C@@H](CCCCN)CN(CC(=O)N[C@@H](Cc1ccccc1)CN(CC(=O)N[C@H]1CCCCNc2c(F)c(F)c(c(F)c2F)S(=O)(=O)c2c(F)c(F)c(c(F)c2F)NCCCC[C@@H](CN(CC(=O)N[C@@H](C)CN(CC(N)=O)S(C)(=O)=O)S(C)(=O)=O)NC(=O)CN(S(=O)(=O)Cc2ccccc2)C[C@H](CC(C)C)NC(=O)CN(S(=O)(=O)CCN)C1)S(=O)(=O)CC(C)C)S(=O)(=O)CCN)S(C)(=O)=O,"cell growth or viability, CCK-8",,72 h,,GI50,8.7 µM
COc1ccc(C=CC(=O)c2cccc(O)c2)cc1,Western blot,,"concentration not given, 48 h, added: estradiol 1 nM",,CDK2 protein level,decreased
CC/C=C\C/C=C\C/C=C\C/C=C\C/C=C\C/C=C\CCC(=O)Nc1ccn(C2OC(CO)C(O)C2(F)F)c(=O)n1 (stereo not drawn),NCI-60 screen,,,,GI50,6.82 µM
CC(=O)O[C@H]1C(=O)[C@]2(C)[C@@H](OC(=O)[C@H](N)CSC3CC(=O)N(CCC(=O)Nc4ccc(-c5ccc(/N=N/c6ccc7c(S(=O)(=O)O)cc(S(=O)(=O)O)c(N)c7c6O)c(C)c5)cc4C)C3=O)C[C@H]3OC[C@@]3(OC(C)=O)[C@H]2[C@H](OC(=O)c2ccccc2)[C@]2(O)C[C@H](OC(=O)[C@H](O)[C@@H](NC(=O)c3ccccc3)c3ccccc3)C(C)=C1C2(C)C (stereo partly drawn),flow cytometry,,"concentration not given, 4 h",,cellular uptake,35.6%
CC(=O)N[C@@H](Cc1ccc(O)cc1)CN(CC(=O)N[C@@H](CCCCN)CN(CC(=O)N[C@@H](Cc1ccccc1)CN(CC(=O)N[C@H]1CCCCNc2c(F)c(F)c(c(F)c2F)S(=O)(=O)c2c(F)c(F)c(c(F)c2F)NCCCC[C@@H](CN(CC(=O)N[C@@H](C)CN(CC(N)=O)S(C)(=O)=O)S(C)(=O)=O)NC(=O)CN(S(=O)(=O)CC(C)C)C[C@H](CC(C)C)NC(=O)CN(S(=O)(=O)CCN)C1)S(=O)(=O)CC(C)C)S(=O)(=O)CCN)S(C)(=O)=O,"cell growth or viability, CCK-8",,72 h,,GI50,4.59 µM
N=C(N)NCCC[C@H](NC(=O)[C@H](Cc1c[nH]c2ccccc12)NC(=O)[C@H](CCC(N)=O)NC(=O)[C@H](Cc1c[nH]c2ccccc12)NC(=O)[C@H](CCCNC(=N)N)NC(=O)[C@H](Cc1c[nH]c2ccccc12)NC(=O)[C@H](CCC(N)=O)NC(=O)[C@H](Cc1c[nH]c2ccccc12)NC(=O)[C@@H](N)CCCNC(=N)N)C(N)=O,,,,relative to: MCF-12 IC50 over MDA-MB-231 IC50,selectivity ratio,> 1.3
CC(=C(c1ccc(O)cc1)c1ccc(Cl)cc1)c1ccc(Cl)cc1,,,,,GI50,0.97 µM
[Ru+2].c1ccc(-c2ccc3c(n2)c2ncccc2c2nc4cc5ccccc5cc4nc32)nc1.c1ccc(-c2ccc3c(n2)c2ncccc2c2nc4cc5ccccc5cc4nc32)nc1,"cell viability, MTT",,"1 h exposure, blue light 20 min, 56 J/cm^2, read 72 h",,EC50,> 25 µM
CC(=O)OCC1(O)C(Nc2cccc(C(C)=O)c2)C(N)C(NC(=O)N(C)C)(C(C)OC(C)=O)C1(C)O (stereo not drawn),cell growth or viability,,,,EC50,0.458 µM
OC(c1ccc(C(F)(F)F)cc1)c1c[nH]c2ncc(C(F)(F)F)cc12 (stereo not drawn),cell growth or viability,,"10 µM, 72 h",,inhibition,18%
C/C(=N\N(c1ccccc1)c1ccccc1)c1ccc(O)cc1,Western blot,,"concentration not given, 48 h, added: estradiol 1 nM",,cyclin A protein level,decreased
N=C(N)NCCC[C@H](NC(=O)[C@H](Cc1c[nH]c2ccccc12)NC(=O)[C@H](CCC(N)=O)NC(=O)[C@H](Cc1c[nH]c2ccccc12)NC(=O)[C@@H](N)CCCNC(=N)N)C(=O)N[C@@H](Cc1c[nH]c2ccccc12)C(=O)N[C@@H](CCC(N)=O)C(=O)N[C@@H](Cc1c[nH]c2ccccc12)C(N)=O,,,,relative to: MCF-12 IC50 over MDA-MB-231 IC50,selectivity ratio,> 1
CC1(C)C(=CC=C2CCCC(C=CC3=[N+](CCCCCC(=O)O)c4ccccc4C3(C)C)=C2c2ccccc2)N(CCCCCC(=O)O)c2ccccc21,,serum-free medium,added: 250 µM bromosulfophthalein,relative to: no bromosulfophthalein,cellular uptake,decreased
CCCCCCCCCCCCCCCOC(=O)/C=C/c1cc(O)c(O)c(OC)c1,propidium iodide flow cytometry,,"concentration not given, 24 h",,cells in G1 phase,54.2%
CC1(C)C(=CC=C2C[N+](C)(C)CC(C=CC3=[N+](CCCCCC(=O)O)c4ccccc4C3(C)C)=C2c2ccccc2)N(CCCCCC(=O)O)c2ccccc21,,,"serum-free medium, added: BSP 250 µM",,cellular uptake,increased
CN[C@@H](C)C(=O)N[C@H]1CN(C(=O)Cc2ccccc2)CC[C@H]2CC[C@@H](C(=O)NCc3ccc(Br)cc3)N2C1=O,"cIAP1 degradation, western blot, measured: cIAP1",,24 h,,onset concentration,> 30 nM
C=C[C@H](OC(C)=O)c1ccc(OC(C)=O)cc1,"Western blot, measured: phospho-FAK/FAK",,"concentration not given, 24 h",,phospho-FAK reduction,70 to 94%
CC1OC2OC3C4=C(OC3(C)C12O)C(=O)c1c(O)cccc1C4=O (stereo not drawn),annexin V/PI flow cytometry,,"8 µg/mL, 48 h",,late apoptotic cells,19.2%
CN[C@@H](C)C(=O)N[C@H]1CN(C(=O)Cc2ccccc2)CC[C@H]2CC[C@@H](C(=O)NCc3ccc(C(F)(F)F)cc3)N2C1=O,"apoptosis, annexin V/PI flow cytometry",,24 h,,minimum effective concentration,300 to 1000 nM
CN[C@@H](C)C(=O)N[C@H]1CCCCNC(=O)[C@H](Cc2ccccc2)NC(=O)[C@@H]2CCCN2C(=O)[C@@H](NC(=O)[C@H](C)NC)CCCCNC(=O)[C@H](Cc2ccccc2)NC(=O)[C@@H]2CCCN2C1=O,fluorometric,,"concentration not given, added: Z-DEVD-FMK",,caspase-3/7 activation,inhibited
C[C@@H]1O[C@H]2O[C@@H]3C4(O)C(=O)c5cccc(O)c5C(=O)C4(O)O[C@]3(C)[C@]21O (stereo partly drawn),"cell growth or viability, MTT",,48 h,,EC50,23.5 µg/mL
CCCCCCCCCCCCCCCOC(=O)/C=C/c1cccc(O)c1,AO-PI flow cytometry,,"IC50, 24 h",,early apoptotic cells,23.9%
N=C(N)NCCC[C@H](NC(=O)[C@H](Cc1c[nH]c2ccccc12)NC(=O)[C@H](CCC(N)=O)NC(=O)[C@@H](N)Cc1c[nH]c2ccccc12)C(=O)N[C@@H](Cc1c[nH]c2ccccc12)C(=O)N[C@@H](CCC(N)=O)C(=O)N[C@@H](Cc1c[nH]c2ccccc12)C(N)=O,,,,relative to: MCF-12 IC50 over MDA-MB-231 IC50,selectivity ratio,1
C=C1C(=O)OC2CC3=C[C@@H](C/C(C)=C/C(OC(=O)Cc4cccc5ccccc45)[C@H]12)OC3=O (stereo partly drawn),flow cytometry,,"3.8 µM, 48 h",,sub-G1 cells,21.4%
OC(c1cccc(OC(F)(F)F)c1)c1c[nH]c2ncc(C(F)(F)F)cc12 (stereo not drawn),cell growth or viability,,"10 µM, 72 h",,inhibition,12%
CC(=O)c1cccc(NC2C(N)C(NC(=O)N(C)C)(C(C)O)C(O)C2(O)COC(=O)c2c(C)cccc2O)c1 (stereo not drawn),cell growth or viability,,,,EC50,0.05 µM
N=C(N)NCCC[C@H](NC(=O)[C@H](Cc1c[nH]c2ccccc12)NC(=O)[C@H](CCC(N)=O)NC(=O)[C@H](Cc1c[nH]c2ccccc12)NC(=O)[C@H](CCCNC(=N)N)NC(=O)[C@H](Cc1c[nH]c2ccccc12)NC(=O)[C@H](CCC(N)=O)NC(=O)[C@@H](N)Cc1c[nH]c2ccccc12)C(N)=O,,,,relative to: erythrocyte IC50 over MDA-MB-231 IC50,selectivity ratio,> 1
OC(c1cccc(C(F)(F)F)c1)c1c[nH]c2ncc(C(F)(F)F)cc12 (stereo not drawn),cell growth or viability,,"10 µM, 72 h",,inhibition,23%
Cc1ccc(C(C)C)cc1.O=C(N=P(c1ccccc1)(c1ccccc1)c1ccccc1)c1ccccn1.[Cl-].[Cl-].[Ru+2],MTT,,,relative to: IC50 RPTC over IC50 MDA-MB-231,selectivity ratio,5.3 fold
FC(F)(F)c1cccc(Cc2c[nH]c3ncc(C(F)(F)F)cc23)c1,cell growth or viability,,"10 µM, 72 h",,inhibition,29%
CC(C)C1=C(O)C(=O)C2=C(C1=O)[C@H](OC=O)[C@@H](O)[C@H]1C(C)(C)CCC[C@]21C,"cell growth or viability, SRB",,48 h,,GI50,> 100 µM

# Repeated from above:
SMILES,test,system,setting,how to read,endpoint,result
FC(F)(F)c1cccc(Cc2c[nH]c3ncc(C(F)(F)F)cc23)c1,cell growth or viability,,"10 µM, 72 h",,inhibition,29%
Cc1ccc(C(C)C)cc1.O=C(N=P(c1ccccc1)(c1ccccc1)c1ccccc1)c1ccccn1.[Cl-].[Cl-].[Ru+2],MTT,,,relative to: IC50 RPTC over IC50 MDA-MB-231,selectivity ratio,5.3 fold
COc1ccc(C=CC(=O)c2cccc(O)c2)cc1,Western blot,,"concentration not given, 48 h, added: estradiol 1 nM",,CDK2 protein level,decreased
O=C(Cc1ccccc1)Nc1nc2ccccc2n1Cc1ccccc1,"inhibitor, western blot",,"concentration not given, hypoxia 1% oxygen",,HIF-1α accumulation,no inhibition
OC(c1cccc(OC(F)(F)F)c1)c1c[nH]c2ncc(C(F)(F)F)cc12 (stereo not drawn),cell growth or viability,,"10 µM, 72 h",,inhibition,12%
